Results collected from several papers.
Protocols differ between the studies behind these lines. Values joined by “and” are separate records of one study, mostly repeats; a detail may differ. Numbers after ± are the reported error.

SMILES | assay | system | setting | measurement | result
CCCCCCCCCCCC(=O)N1CCN(C(=O)C2CCNCC2)CCN(C(=O)C2CCNCC2)CC1 | dynamic light scattering | deionized water | 128 µg/mL, 25 °C, intensity average | hydrodynamic diameter | 179 nm
CC(C)C[C@H](NC(=O)[C@H](Cc1ccc(O)cc1)NC(=O)[C@H](Cc1c[nH]cn1)NC(=O)[C@H](CCCCN)NC(=O)[C@H](CC(C)C)NC(=O)[C@H](C)NC(=O)[C@H](CC(C)C)NC(=O)[C@H](CCCCN)NC(=O)CNC(=O)[C@@H](NC(=O)[C@@H](NC(=O)[C@H](CCCCN)NC(=O)[C@@H](NC(=O)[C@H](CCC(=O)O)NC(=O)[C@H](C)NC(=O)[C@H](CCCCN)NC(=O)[C@H](CCCCN)NC(=O)[C@H](CC(C)C)NC(=O)[C@H](CC(C)C)NC(=O)[C@@H](NC(=O)[C@H](CCCNC(=N)N)NC(=O)[C@H](Cc1c[nH]c2ccccc12)NC(=O)CN)[C@@H](C)O)C(C)C)[C@@H](C)O)C(C)C)C(N)=O | – | zebrafish embryos 28 hpf, E3 medium | 1 h | acute toxic concentration | 25 µM
O=C1NC2(CC2)COc2ncc(F)cc2[C@H]2COCCN2c2ccn3ncc1c3n2 | – | Sprague-Dawley rat, female, serum | oral, 5 mg/kg/day, end of recovery, 4-week subacute toxicity | serum LDH activity | 768 ± 64 U/L
N=C(N)NCCC[C@@H](NC(=O)[C@H](N)Cc1c[nH]c2ccccc12)C(=O)N[C@H](CCCCN)C(=O)N[C@H](Cc1c[nH]c2ccccc12)C(=O)N[C@H](CCCNC(=N)N)C(=O)N[C@H](CCCCN)C(=O)N[C@H](Cc1c[nH]c2ccccc12)C(=O)N[C@H](CCCNC(=N)N)C(=O)N[C@H](CCCCN)C(=O)N[C@H](Cc1c[nH]c2ccccc12)C(=O)N[C@H](CCCNC(=N)N)C(=O)N[C@H](CCCCN)C(N)=O | – | mouse, urine | 30 mg/kg | NGAL level | 32.7 ng/mL
CC[C@H](C)[C@H](NC(=O)[C@H](CCCCN)NC(=O)CNC(=O)[C@H](CC(C)C)NC(=O)[C@H](Cc1ccccc1)NC(=O)[C@H](CCCCN)NC(=O)[C@H](CO)NC(=O)[C@H](Cc1ccccc1)NC(=O)[C@H](Cc1c[nH]c2ccccc12)NC(=O)[C@H](CCC(N)=O)NC(=O)[C@@H](NC(=O)[C@H](Cc1ccccc1)NC(=O)CCCCCNC(=O)CN1CCN(CC(=O)O)CCN(CC(=O)O)CCN(CC(=O)O)CC1)C(C)C)C(=O)N[C@@H](CCC(=O)O)C(=O)N1CCC[C@H]1C(=O)N[C@@H](CC(=O)O)C(=O)N[C@H](C(=O)N[C@@H](CO)C(=O)N[C@@H](CCC(N)=O)C(=O)N[C@H](C(=O)N[C@@H](CCC(N)=O)C(=O)N[C@@H](CC(=O)O)C(=O)N1CCC[C@H]1C(=O)N[C@@H](CC(N)=O)C(=O)N[C@@H](CC(=O)O)C(=O)N[C@@H](CCC(N)=O)C(=O)N[C@@H](Cc1ccc(O)cc1)C(=O)N[C@@H](CCC(=O)O)C(=O)N1CCC[C@H]1C(=O)N[C@@H](Cc1ccccc1)C(=O)O)C(C)C)C(C)C [copper-64 labelled] | – | C57BL/6 mice, stomach | with: LPS 3 mg/kg intratracheal | tissue uptake | 2.53 ± 0.2 %ID/g
COc1ccc(CNc2ccc3c(c2)S(=O)(=O)C=C3)cc1 | – | male C57BL/6 mice, blood | intraperitoneal, 20 mg/kg, day 8, group average | haemoglobin | 119 g/L
CSCC[C@@H]1NC(=O)[C@H](C(C)C)NC(=O)[C@H](CCCNC(=N)N)NC(=O)CNC(=O)[C@@H]2CCCN2C(=O)[C@@H](NC(=O)CNC(=O)[C@H](CO)NC(=O)CNC(=O)[C@H](CO)NC(=S)Nc2ccc(C[C@H]3CN(CC(=O)O)CCN(CC(=O)O)CCN3CC(=O)O)cc2)CSSC[C@@H](C(N)=O)NC(=O)[C@@H]2CCCN2C(=O)CNC(=O)[C@H](CCC(=O)O)NC(=O)[C@H](CC(=O)O)NC(=O)[C@H](CC(=O)O)NC(=O)CNC(=O)[C@H](CC(C)C)NC(=O)[C@H](Cc2c[nH]cn2)NC(=O)[C@H](CC(C)C)NC(=O)CNC(=O)[C@H](Cc2c[nH]cn2)NC1=O [copper-64 labelled] | dynamic PET | CD rat, myocardial infarction, infarct myocardium fibrosis | intravenous, 18.5 MBq | clearance half-life | 25.6 ± 8 min
C=Cc1c(C)c2cc3nc(c(CC(=O)O)c4[nH]c(cc5nc(cc1[nH]2)C(C)=C5CC)c(C)c4C(=O)O)[C@@H](CCC(=O)NCCCC[C@H](NC(C)=O)C(=O)N[C@@H](Cc1ccccc1)C(=O)N[C@@H](Cc1ccccc1)C(=O)N[C@H](C(=O)N[C@@H](CC(C)C)C(=O)N[C@@H](CCCCN)C(=O)N[C@@H](CO)C(=O)NCC(=O)N[C@@H](CCC(N)=O)C(=O)N[C@@H](Cc1ccc(O)cc1)C(=O)N[C@@H](C)C(=O)N[C@@H](CO)C(=O)N[C@@H](Cc1ccc(O)cc1)C(=O)N[C@@H](Cc1c[nH]cn1)C(=O)N[C@@H](CS)C(=O)N[C@@H](Cc1c[nH]c2ccccc12)C(=O)N[C@@H](CS)C(=O)N[C@@H](Cc1c[nH]c2ccccc12)C(=O)N[C@@H](CCCNC(=N)N)C(=O)N[C@@H](CC(=O)O)C(=O)N1CCC[C@H]1C(=O)NCC(=O)N[C@@H](CCCNC(=N)N)C(=O)N[C@@H](CO)C(=O)NCC(=O)NCC(=O)N[C@@H](CO)C(=O)N[C@@H](CCCCN)C(N)=O)C(C)C)[C@@H]3C | – | mouse, 4T1 breast tumour, serum | concentration not given, 21 days after single dose | TNF level | 47.1 pg/mL and 46.8 pg/mL
CSCC[C@H](NC(=O)CNC(=O)[C@H](CCCCN)NC(=O)[C@H](CC(C)C)NC(=O)[C@@H]1CCCN1C(=O)[C@H](CO)NC(=O)[C@H](Cc1c[nH]cn1)NC(=O)[C@H](Cc1c[nH]c2ccccc12)NC(=O)[C@H](CCCNC(=N)N)NC(=O)[C@H](CC(C)C)NC(=O)[C@H](CCCNC(=N)N)NC(=O)[C@H](Cc1c[nH]c2ccccc12)NC(=O)[C@H](CS)NC(=O)CCCCCNC(=O)CN1CCN(CC(=O)O)CCN(CC(=O)O)CCN(CC(=O)O)CC1)C(=O)O [copper-64 labelled] | PET imaging | BALB/c nude mice, liver | intravenous, dose not given, 9 h, Huh-7 tumour-bearing | tissue uptake | 8.01 ± 0.62 %ID/g
C[C@H](O)[C@@H](NC(=O)[C@H]1CCCN1C(=O)[C@@H](CCCCN)NC(=O)[C@@H](CO)NC(=O)[C@@H](Cc1ccc(O)cc1)NC(=O)[C@@H](CC(N)=O)NC(=O)CCOCCOCCOCCNC(=O)CN1CCN(CC(=O)O)CCN(CC(=O)O)CCN(CC(=O)O)CC1)C(=O)N[C@H](CC(=O)O)C(=O)N[C@H](CCCNC(=N)N)C(=O)N[C@H](CCC(N)=O)C(=O)N[C@H](Cc1ccc(O)cc1)C(=O)N[C@H](Cc1c[nH]cn1)C(=O)N[C@H](Cc1ccccc1)C(N)=O [copper-64 labelled] | – | C57BL/6J mice, muscle | intravenous, 1.85 MBq, 0.6667 h, radiolabelled | tissue uptake | 0.32 ± 0.02 %ID/g
CC(=O)N[C@@H](CCCNC(=N)N)C(=O)N[C@@H](Cc1c[nH]c2ccccc12)C(=O)N[C@H](C(=O)N[C@@H](Cc1c[nH]c2ccccc12)C(=O)N[C@@H](CCCNC(=N)N)C(=O)NCC(=O)N[C@@H](CO)C(=O)NCC(=O)N[C@@H](CCCNC(=N)N)C(=O)N[C@@H](Cc1c[nH]c2ccccc12)C(=O)N[C@H](C(=O)N[C@@H](Cc1c[nH]c2ccccc12)C(=O)N[C@@H](CCCNC(=N)N)C(N)=O)[C@@H](C)O)[C@@H](C)O | circular dichroism | phosphate buffer | 30 µM, pH 6.5 | melting temperature | 78.9 °C
COc1cnc2cccc(N3CCc4c(cc(Cn5ccnc5)cc4-c4cn(C)nc4C(F)(F)F)C3=O)c2c1 | – | BALB/c nude mice, MV4-11 xenograft | intraperitoneal, 50 mg/kg, day 21 | body weight | 20.8 g and 23.8 g and 23.5 g and 21.4 g and 23.1 g
CC[C@H](C)[C@H](NC(=O)[C@H](CCCNC(=N)N)NC(=O)[C@H](CCCCN)NC(=O)[C@H](Cc1ccc(O)cc1)NC(=O)[C@H](CC(=O)O)NC(=O)[C@H](C)NC(=O)CNC(=O)CCOCCOCCOCCNC(=O)CN1CCN(CC(=O)O)CCN(CC(=O)O)CCN(CC(=O)O)CC1)C(=O)N[C@H](C(=O)N[C@@H](CC(C)C)C(=O)N[C@@H](CCCCN)C(=O)N[C@H](C(=O)N[C@@H](CC(N)=O)C(N)=O)C(C)C)[C@@H](C)O [copper-64 labelled] | ex vivo gamma counting | C57BL/6J male mice, B16-F10 tumour, lung | intravenous, 1.85 MBq, 20 min | tissue uptake | 1.95 ± 0.963 %ID/g
